Results gathered from unrelated publications.
Lines come from different studies, so protocols differ. pEC50: −log10 of the molar value.
Cell line: MDA-MB-231

| SMILES | assay | conditions | scale | endpoint | result |
| --- | --- | --- | --- | --- | --- |
| CC[C@H](C)[C@@H]([C@@H](CC(=O)N1CCC[C@H]1[C@H](OC)[C@@H](C)C(=O)N[C@H](C)[C@@H](O)c1ccccc1)OC)N(C)C(=O)[C@@H](NC(=O)[C@H](C(C)C)N(C)C(=O)CCSSC[C@H](NC(=O)[C@@H](NC(=O)CNC(=O)[C@H](CCC(=O)O)NC(=O)[C@H](CC(=O)O)NC(=O)[C@H](C)NC(=O)[C@H](CC(=O)O)NC(=O)[C@@H](NC(=O)[C@H](CC(C)C)NC(=O)[C@H](CC(C)C)NC(=O)[C@H](C)NC(=O)[C@H](CC(C)C)NC(=O)[C@H](CC(=O)O)NC(=O)[C@H](CC(C)C)NC(=O)[C@H](CC(C)C)NC(=O)[C@H](CC(C)C)NC(=O)[C@H](CC(C)C)NC(=O)[C@@H]1CCCN1C(=O)[C@@H](NC(=O)[C@@H](NC(=O)[C@H](Cc1ccccc1)NC(=O)[C@H](CC(C)C)NC(=O)[C@H](Cc1c[nH]c2ccccc12)NC(=O)[C@H](CC(=O)O)NC(=O)[C@H](C)NC(=O)[C@H](Cc1ccc(O)cc1)NC(=O)[C@H](CCCNC(=N)N)NC(=O)[C@H](C)NC(=O)[C@H](Cc1c[nH]c2ccccc12)NC(=O)[C@H](Cc1ccc(O)cc1)NC(=O)[C@@H](NC(=O)[C@@H]1CCCN1C(=O)[C@H](CC(N)=O)NC(=O)[C@H](CCC(N)=O)NC(=O)[C@H](CCC(=O)O)NC(=O)[C@H](C)NC(=O)[C@H](C)N)[C@@H](C)CC)[C@@H](C)O)[C@@H](C)O)C(C)C)[C@@H](C)O)C(=O)NCC(=O)O)C(C)C | – | 1.25 µM, 2 h | – | cell killing | 100% |
| CC(C)[C@@H]1NC(=O)[C@H](Cc2ccccc2)NC(=O)[C@H](Cc2ccc(O)cc2)NC(=O)CCSSC[C@@H](C(=O)N2CCC[C@H]2C(=O)N[C@H](CCCNC(=N)N)C(=O)NCC(N)=O)NC(=O)[C@H](CCC(N)=O)NC1=O | colony formation, clonogenic | 1500 nM, 7 days | – | inhibition | 75% |
| CCCC[C@H](O)C[C@@H](C)C[C@H](NC(=O)[C@@H]1C[C@H](C)CN1C(=O)/C=C/[C@@H](C)CC)C(=O)N[C@H](C(=O)NC(C)(C)C(=O)N[C@@H](CC(C)C)C(=O)N[C@@H](CC(C)C)C(=O)NC(C)(C)C(=O)NC(C)(C)C(=O)NCCC(=O)N[C@@H](C)CNC)[C@H](O)C(C)C | cell growth or viability, SRB | 48 h | – | GI50 | > 0.1 µM |
| COC(=O)C1CCCN1C(=O)C(Cc1ccccc1)N(C)C(=O)CC(O)C(CC(C)C)NC(=O)C(CC(C)C)N(C)C(=O)C(CC(C)C)NC(=O)C(O)C(C)C (stereo not drawn) | RNA-seq pathway analysis, refers to: NOD1/2 signalling pathway | 40 µM, 12 h | direction not given | pathway activation z-score | 2 |
| O=C1[O][Pt]2([OH])([OH])([NH]C3CCCCC3[NH]2)[O]C1=O (stereo not drawn) | wound-healing | IC20, 24 h | – | migration inhibition | ~27% |
| C[C@H](N)[C@@H](CCCCCCCCCCCCCCC(=O)CCCCCCC[C@@H](O)[C@@H](C)N)O[C@@H]1O[C@H](CO)[C@H](O)[C@H](O)[C@H]1O | – | – | relative to: IC50 MCF-12A over IC50 MDA-MB-231 | selectivity ratio | 3.7 |
| NC1CCCCC1N.O=C1[O][Pt]([O]C(=O)c2ccc(P(c3ccccc3)c3ccccc3)cc2)([O]C(=O)c2ccc(P(c3ccccc3)c3ccccc3)cc2)[O]C1=O.[Cl][Au].[Cl][Au] | annexin V/PI flow cytometry | concentration not given, 24 h | – | apoptotic cells | 21.9% |
| CC(C)C(C)C=CC(C)C1CCC2C1(C)CCC1C23C=CC2(CC(OC(=O)CCCCC4SCC5NC(=O)NC54)CCC12C)OO3 (stereo not drawn) | cell growth or viability, ATP luminescence | – | – | pEC50 | 5.00 |
| N=C(N)NCCC[C@H](NC(=O)[C@H](CCCNC(=N)N)NC(=O)[C@@H]1CCCN1C(=O)[C@H](CCCNC(=N)N)NC(=O)[C@H](CCCNC(=N)N)NC(=O)[C@H](CCCNC(=N)N)NC(=O)[C@H](Cc1c[nH]c2ccccc12)NC(=O)[C@H](CCCNC(=N)N)NC(=O)[C@H](CCCNC(=N)N)NC(=O)[C@H](CCCNC(=N)N)NC(=O)[C@H](CCCNC(=N)N)NC(=O)[C@H](CCCNC(=N)N)NC(=O)[C@H](Cc1c[nH]c2ccccc12)NC(=O)[C@H](CCCNC(=N)N)NC(=O)[C@H](CCCNC(=N)N)NC(=O)[C@H](Cc1ccc(O)cc1)NC(=O)[C@H](CCCNC(=N)N)NC(=O)[C@H](CCCNC(=N)N)NC(=O)[C@H](CCCNC(=N)N)NC(=O)[C@@H](N)Cc1c[nH]c2ccccc12)C(N)=O | AFM | IC50, 24 h | relative to: untreated | cell height and roughness | no effect |
| CCC(=O)CCC[C@H](C)C[C@H](NC(=O)[C@@H]1C[C@H](C)CN1C(=O)/C=C/[C@@H](C)CC)C(=O)N[C@H](C(=O)NC(C)(C)C(=O)N[C@@H](CC(C)C)C(=O)N[C@@H](CC(C)C)C(=O)NC(C)(C)C(=O)NC(C)(C)C(=O)NCCC(=O)N[C@@H](C)CNC)[C@H](O)C(C)C | cell growth or viability, SRB | 48 h | – | GI50 | > 0.1 µM |
| CC=C(C)C(=O)OC1C(O)C2OC(COC(=O)CCCCCCCCCC(CCCCC)OC3OC(C)C(OC(C)=O)C(O)C3O2)C1OC(=O)C=Cc1ccccc1 (stereo not drawn) | – | – | relative to: IC50 MCF-10A over IC50 MDA-MB-231 | selectivity index | 1.91 |
| CCC(=O)C[C@@H](O)C[C@@H](C)C[C@H](NC(=O)[C@@H]1C[C@H](C)CN1C(=O)/C=C/[C@@H](C)CC)C(=O)N[C@H](C(=O)NC(C)(C)C(=O)N[C@@H](CC(C)C)C(=O)N[C@@H](CC(C)C)C(=O)NC(C)(C)C(=O)NC(C)(C)C(=O)NCCC(=O)N[C@@H](C)CNC)[C@H](O)C(C)C | cell growth or viability, SRB | 48 h | – | GI50 | > 0.1 µM |
| CCOC(=O)C1=C(COCc2cn(CCN3C(=O)C(=O)c4cc(Cl)ccc43)nn2)N=C2Sc3ccccc3N2C1c1cccc(Cl)c1 (stereo not drawn) | MTT | 100 µM, 48 h | – | viability | ~58% |
| C[C@@H](N)[C@H](O)CCCCCCCC(=O)CCCCCCCCCCCCCC[C@@H](O[C@@H]1O[C@H](CO)[C@@H](O)[C@H](O)[C@H]1O)[C@@H](N)CO | – | – | relative to: IC50 MCF-12A over IC50 MDA-MB-231 | selectivity ratio | 10.1 |
| O=C(O)c1ccc([PH]([Au][Cl])(c2ccccc2)c2ccccc2)cc1 | wound-healing | IC20, 24 h | – | migration inhibition | 40% |
| CC/C=C\C/C=C\C/C=C\C/C=C\C/C=C\C/C=C\CCC(=O)Nc1ccn(C2OC(CO)C(O)C2(F)F)c(=O)n1 (stereo not drawn) | NCI-60 screen | – | – | CC50 | 53.5 µM |
| CN[C@@H](C)C(=O)N[C@H]1CN(C(=O)Cc2ccccc2)CC[C@H]2CC[C@@H](C(=O)NCc3ccc(C(F)(F)F)cc3)N2C1=O | TNFα-dependent cell killing, trypan blue | 1 µM, 48 h, with: TNFα-blocking antibody 2 µg/mL | – | cell death | inhibited |
| Cc1ccc(C(C)C)cc1.O=C(N=P(c1ccccc1)(c1ccccc1)c1ccccc1)c1ccccn1.[Cl-].[Cl][Ru+] | western blot, refers to: p53 | IC20, 6 h and 24 h | – | protein level | no effect |

Excerpt of the above:
| SMILES | assay | conditions | scale | endpoint | result |
| --- | --- | --- | --- | --- | --- |
| CC[C@H](C)[C@@H]([C@@H](CC(=O)N1CCC[C@H]1[C@H](OC)[C@@H](C)C(=O)N[C@H](C)[C@@H](O)c1ccccc1)OC)N(C)C(=O)[C@@H](NC(=O)[C@H](C(C)C)N(C)C(=O)CCSSC[C@H](NC(=O)[C@@H](NC(=O)CNC(=O)[C@H](CCC(=O)O)NC(=O)[C@H](CC(=O)O)NC(=O)[C@H](C)NC(=O)[C@H](CC(=O)O)NC(=O)[C@@H](NC(=O)[C@H](CC(C)C)NC(=O)[C@H](CC(C)C)NC(=O)[C@H](C)NC(=O)[C@H](CC(C)C)NC(=O)[C@H](CC(=O)O)NC(=O)[C@H](CC(C)C)NC(=O)[C@H](CC(C)C)NC(=O)[C@H](CC(C)C)NC(=O)[C@H](CC(C)C)NC(=O)[C@@H]1CCCN1C(=O)[C@@H](NC(=O)[C@@H](NC(=O)[C@H](Cc1ccccc1)NC(=O)[C@H](CC(C)C)NC(=O)[C@H](Cc1c[nH]c2ccccc12)NC(=O)[C@H](CC(=O)O)NC(=O)[C@H](C)NC(=O)[C@H](Cc1ccc(O)cc1)NC(=O)[C@H](CCCNC(=N)N)NC(=O)[C@H](C)NC(=O)[C@H](Cc1c[nH]c2ccccc12)NC(=O)[C@H](Cc1ccc(O)cc1)NC(=O)[C@@H](NC(=O)[C@@H]1CCCN1C(=O)[C@H](CC(N)=O)NC(=O)[C@H](CCC(N)=O)NC(=O)[C@H](CCC(=O)O)NC(=O)[C@H](C)NC(=O)[C@H](C)N)[C@@H](C)CC)[C@@H](C)O)[C@@H](C)O)C(C)C)[C@@H](C)O)C(=O)NCC(=O)O)C(C)C | – | 1.25 µM, 2 h | – | cell killing | 100% |
| CC(C)[C@@H]1NC(=O)[C@H](Cc2ccccc2)NC(=O)[C@H](Cc2ccc(O)cc2)NC(=O)CCSSC[C@@H](C(=O)N2CCC[C@H]2C(=O)N[C@H](CCCNC(=N)N)C(=O)NCC(N)=O)NC(=O)[C@H](CCC(N)=O)NC1=O | colony formation, clonogenic | 1500 nM, 7 days | – | inhibition | 75% |
